Published values from different studies.
Compare with care: the assays were run in different laboratories. Several values in a cell are separate wells, animals, samples, runs or records. Numbers after ± are the reported error.

SMILES	target or system	assay	system	setting	scale	quantity	result
COc1ccc(-c2cncc(N[C@@H](C)c3cccc(NC(=O)c4cncc(C)c4)c3)n2)cc1OC		refers to: rno-miR-143-3p	rat SU5416/hypoxia model, lung	dose not given, unit not given	reference: SU5416/hypoxia vehicle	delta delta Ct	0.856
Nc1ncc(-c2cn([C@@H]3O[C@](F)(CO)[C@@H](O)[C@H]3O)cn2)cn1	Dengue virus	viral replication	Huh-7, DENV-4	48 h		EC50	> 100 µM
CN(C(=O)n1cnc(-c2ccc[n+]([O-])c2)c1)C1CCCCC1		refers to: PEA	human, plasma	20 mg once daily, day 10		AUC(0-tau)	129 ng·h/mL
CSCCNc1nc(SCCC(F)(F)F)nc2c1ncn2[C@@H]1O[C@H](COP(=O)(O)OP(=O)(O)C(Cl)(Cl)P(=O)(O)O)[C@@H](O)[C@H]1O		ADP-induced platelet aggregation, Multiplate aggregometry	human patients, whole blood	dose not given, 2 h		platelet aggregation AUC	28.6 ± 15.1 U
COC(=O)[C@H](Cc1c[nH]c2ccccc12)NCc1cc2ccccc2nc1OC	Pseudomonas aeruginosa			4 µg/mL, added: pentamidine 50 µM	reference: control	growth	99.3%
COc1cc(/C=C/C(=O)CC(=O)/C=C/c2ccc(O)c(OC)c2)ccc1O	human iPSC-derived cardiomyocytes	MyBP-C/MYH ratio, plate-normalised SD score		concentration not given, primary screen	direction not given	activity score	4.4
CCn1cc(-c2cc(Cn3ccnc3)cc3c2CCN([C@H](c2cc(OC)ccn2)C2CC2)C3=O)c(C(F)(F)F)n1	NCI-H446	cell growth, inhibitor		120 h		EC50	> 30 µM
CC(Nc1nc(N2CCCC2)nc2ccccc12)c1ccccc1 (stereo not drawn)	importin beta-1	SREBP1 nuclear import, high content imaging	HeLa Kyoto	5.01 µM, 3 h, added: glucose and MG132		cells with nuclear SREBP1	95.5% and 89.3% and 86.2% and 86.5%
O=C(CCCCC(=O)Nc1c(I)cc(I)c(C(=O)O)c1I)Nc1c(I)cc(I)c(C(=O)O)c1I	human iPSC-derived cardiomyocytes	MyBP-C/MYH ratio, plate-normalised SD score		concentration not given, primary screen	direction not given	activity score	5.5
Oc1ccccc1-c1n[nH]cc1-c1ccnc2ccccc12	TPK1 (Candida albicans)	kinase binding, MIB/MS competition	Candida albicans lysate	10 µM	reference: DMSO	log2 fold change	0.54
OC(CCN1CCCCC1)(c1ccccc1)C1CC2C=CC1C2 (stereo not drawn)		resting-state EEG	healthy elderly humans	oral, 4 mg, eyes closed, LS mean	reference: baseline	change, Delta EEG power, in O2-Pz	35.9%
CCn1cc(-c2cc(Cn3ccoc3=N)cc3c2CCN([C@@H](C)c2cc(OC)ccn2)C3=O)c(C(F)(F)F)n1	NCI-H929	cell growth, inhibitor		120 h		EC50	1.2 µM
COc1nc(N)ncc1-c1cn([C@@H]2O[C@](F)(CO)[C@@H](O)[C@H]2O)cn1	Dengue virus	viral replication	Huh-7, DENV-4	48 h		EC50	> 50 µM
COc1cnc2cccc(N3CCc4c(cc(Cn5ccnc5C)cc4-c4cn(C)nc4C(F)(F)F)C3=O)c2c1	PECAPJ15	cell growth		120 h		EC50	2.61 µM
CC[C@H](c1ccc(O)cc1)[C@@H](CC)c1ccc(O)cc1	human iPSC-derived cardiomyocytes	MyBP-C/MYH ratio, plate-normalised SD score		concentration not given, primary screen	direction not given	activity score	3.8
c1coc(-c2n[nH]cc2-c2ccnc3ccccc23)c1	TPK1 (Candida albicans)	kinase binding, MIB/MS competition	Candida albicans lysate	10 µM	reference: DMSO	log2 fold change	-0.05
CC[S+]([O-])c1nc(-c2ccccc2)cc(C(F)(F)F)n1 (stereo not drawn)	importin beta-1	SREBP1 nuclear import, high content imaging	HeLa Kyoto	0.02 µM, 3 h, added: glucose and MG132		cells with nuclear SREBP1	86.8% and 85.5% and 84.4% and 84%
FC(F)(F)C(Cl)Br (stereo not drawn)	human iPSC-derived cardiomyocytes	MyBP-C/MYH ratio, plate-normalised SD score		concentration not given, primary screen	direction not given	activity score	3.3
N#Cc1ccc2c(c1)[C@H]1CCCN(C(=O)c3ccc4[nH]cnc4c3)[C@H]1C2		refers to: fasting plasma insulin	human, Phase II trial	oral, 20 mg once daily, day 28, adjusted mean, SE		change from baseline	20.1 pmol/L
Cc1ncc(CO)c(CO)c1O	human iPSC-derived cardiomyocytes	MyBP-C/MYH ratio, plate-normalised SD score		concentration not given, primary screen	direction not given	activity score	3.1
C[C@H]1C[C@H]2CSC(N)=N[C@@]2(c2nc(NC(=O)c3ccc(OC(F)F)cn3)cs2)CO1		refers to: Aβ1-40	healthy adults, plasma	400 mg single dose, 8 h post-dose	reference: placebo	percent change from baseline	-82.4%
COc1ccc(-c2cc(=O)c3c(O)c(OC)c(OC)c(OC)c3o2)cc1	human iPSC-derived cardiomyocytes	MyBP-C/MYH ratio, plate-normalised SD score		concentration not given, primary screen	direction not given	activity score	3.8
COc1ncc(-c2cn([C@@H]3O[C@](F)(COC(=O)C(C)C)[C@@H](OC(=O)C(C)C)[C@H]3OC(=O)C(C)C)cn2)c(N)n1	Dengue virus	viral replication	Huh-7, DENV-4	48 h		EC50	> 100 µM
COC1=C2C[C@@H](C)C[C@H](OC)[C@H](O)[C@@H](C)/C=C(\C)[C@H](OC(N)=O)[C@@H](OC)/C=C\C=C(/C)C(=O)NC(=CC1=O)C2=O	MYBPC3 iPSC cardiomyocytes	plate-normalised		concentration not given, 24 h, hit retest		MyBP-C level	3%
O=C(O)CNC(=O)Cc1ccccc1			ventricular cardiomyocytes, C57BL/6 mouse	dose not given, 0.132 s		sarcomere length	1.69 µm
Cc1nnc(NS(=O)(=O)c2ccc(N)cc2)s1	human iPSC-derived cardiomyocytes	MyBP-C/MYH ratio, plate-normalised SD score		concentration not given, primary screen	direction not given	activity score	3.6
Cn1cc(-c2ccc(-c3cncc(Cl)c3N3CCC4(CCNC4=O)CC3)cc2)cn1	COLO 205	gene expression, microarray, refers to: TGFB3 mRNA		concentration not given, 6 h	reference: untreated cells	log2 fold change	-2.18

A few entries again:
SMILES	target or system	assay	system	setting	scale	quantity	result
CSCCNc1nc(SCCC(F)(F)F)nc2c1ncn2[C@@H]1O[C@H](COP(=O)(O)OP(=O)(O)C(Cl)(Cl)P(=O)(O)O)[C@@H](O)[C@H]1O		ADP-induced platelet aggregation, Multiplate aggregometry	human patients, whole blood	dose not given, 2 h		platelet aggregation AUC	28.6 ± 15.1 U
COC(=O)[C@H](Cc1c[nH]c2ccccc12)NCc1cc2ccccc2nc1OC	Pseudomonas aeruginosa			4 µg/mL, added: pentamidine 50 µM	reference: control	growth	99.3%
